Results from different studies.
Parts stem from different laboratories: compare values within a part only.

Block 1 — method: protein-binding microarray; form: double-stranded DNA, one strand shown; matrix: in vitro; concentration: 250 nM; notes: 60-bp whole probe; with: salmon DNA 0.4 mg/ml; relative to: random background probes; direction: higher = stronger binding; endpoint: log fluorescence
Target: Interferon regulatory factor 5, full length, phosphomimetic (IRF5, Homo sapiens, UniProt Q13568-2, residues 1-514, K96S/S451D/S453D/S456D/S462D)
GCCTAGCACTTAGGTTTCCTGCTGCTTTAGTGCTAGGTCTTGATTCGCTTGACGCTGCTG: 0.254 z-score
GCCTAGCACTCAACTCTGAACCTTGGACTGTGCTAGGTCTTGATTCGCTTGACGCTGCTG: -0.303 z-score
GCCTAGCACGAAAACAAAGAAAATACAAAGTGCTAGGTCTTGATTCGCTTGACGCTGCTG: 1.88 z-score

Single results of other studies
GGTTGGTGTGGTTGG (2'F-ANA at 1 2 6 8 12 13 14 15)  mean fluorescence intensity (Prothrombin, mature alpha-thrombin (F2, Homo sapiens, UniProt P00734); aptamer microarray, sandwich; DNA with 2'F-ANA, in vitro; 200 nM, whole 15-mer aptamer, many near background, with: Cy3 exosite-II aptamer, 400 nM; higher = stronger binding): 68.3 a.u.
HNRNPA2B1 (Homo sapiens, UniProt P22626)  interaction screen (HNRNPAB (Homo sapiens, UniProt Q99729); cross-linking MS; hits only): cross-linked
GUCUUUC  7-mer Z-score (PABPC1L2, full length, GST fusion (mouse, UniProt A0ABA7IW68); RNAcompete; RNA, in vitro; 20 nM, 7-mer, probes averaged, single round; relative to: mean of 7-mers, higher = stronger binding): -0.536
PhoQ, residues 284 288 289 292 302 303 TVTVVA  fold induction (PhoP, residues 12 14 15 18 19 NYFTV (Escherichia coli, UniProt P23836); Sort-seq, refers to: YFP reporter; E. coli; PhoQ-PhoP variant library, with: 10 µM Mg2+; relative to: high Mg2+ state, higher = stronger signaling): 9.43
GAAATGTA  E-score (Histone acetyltransferase KAT6A, winged helix 1, GST fusion (KAT6A, Homo sapiens, UniProt Q92794, residues 1-85); protein binding microarray; double-stranded DNA, one strand shown, in vitro; not given, 8-mer, flanks averaged, mean of 2 arrays, mostly near background; relative to: not given, higher = stronger binding): -0.135

Repeated from above (single results of other studies):
HNRNPA2B1 (Homo sapiens, UniProt P22626)  interaction screen (HNRNPAB (Homo sapiens, UniProt Q99729); cross-linking MS; hits only): cross-linked
